Results gathered from unrelated publications.
A part holds a random share of what one study measured. Changes are numbered by the printed parent chain.

Sample 1 — target: CCNE2, cyclin fold, Cln2 fusion (human); method: yeast growth competition, sequencing; matrix: yeast; notes: weak parent motif; baseline: not given; reading: higher = stronger binding
Parent: ORC1 docking peptide (human); PRARKRLELGNLG; partner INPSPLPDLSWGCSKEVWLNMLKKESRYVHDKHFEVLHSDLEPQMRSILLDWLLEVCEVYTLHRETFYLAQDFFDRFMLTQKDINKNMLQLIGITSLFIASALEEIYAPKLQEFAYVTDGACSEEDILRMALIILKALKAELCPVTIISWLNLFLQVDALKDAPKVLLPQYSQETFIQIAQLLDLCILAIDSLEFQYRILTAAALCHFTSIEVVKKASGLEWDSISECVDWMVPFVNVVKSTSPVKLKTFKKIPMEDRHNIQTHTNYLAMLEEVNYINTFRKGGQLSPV
For `PRARKRLELGNLC [G13C]`, “normalised enrichment score” read 0.809.
`PPARKRLELGNLG [R2P]`: “normalised enrichment score” 0.404.
For `PRARFRLELGNLG [K5F]`, “normalised enrichment score” read 1.05.
Under “normalised enrichment score”, `PRARKRLSLGNLG [E8S]` is recorded as -0.144.
For `PRARKRLELGNHG [L12H]`, “normalised enrichment score” read 1.04.
Under “normalised enrichment score”, `PRTRKRLELGNLG [A3T]` is recorded as 0.971.
For `PRARKRLELGNRG [L12R]`, “normalised enrichment score” read 0.746.
`PRARKRLELGALG [N11A]` — result for “normalised enrichment score”: 0.226.

Sample 2 — method: RNA Bind-n-Seq; form: RNA; matrix: in vitro; tested at: 365 nM; baseline: no-protein control; reading: higher = stronger binding
Target: RNA binding protein fox-1 homolog 2, RRM domain, GST-SBP tag (RBFOX2, Homo sapiens, UniProt O43251-10, residues 100-194)
Notes: natural RNA segment, single round, ends assumed
Construct (chain): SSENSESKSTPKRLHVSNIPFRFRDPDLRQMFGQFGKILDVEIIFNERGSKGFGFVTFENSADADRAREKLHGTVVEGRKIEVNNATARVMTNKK
`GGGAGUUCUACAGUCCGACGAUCUCGUGUCCUUGCUGUCUUUUUAUUUUCCUUUUUGUUUGUUAGCAAAAACCUCUAUUUAGAUUUCAAUAAUCAGAGAAGUGUAAAAUAAAACAGAUUAUAUUGUACUUGACUGGAAUUCUCGGGUGCCAA` — result for “RBNS enrichment (R)”: 0.647.
Under “RBNS enrichment (R)”, `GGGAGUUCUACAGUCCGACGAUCACAUAUCGCUGACUUCAUGGAAUGGACAUCCUGUAUAAGCACUGAAAAACAACAACACAAUAACACUAAAAUUUUAGGCACUCUUAAAUGAUCUGCCUCUAAAAGCGUUGUGGAAUUCUCGGGUGCCAA` is recorded as 0.391.
Under “RBNS enrichment (R)”, `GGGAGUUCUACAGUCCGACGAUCUAAAAUAUAUUUUAACCAUCCAGAGAUGGUGUUGAAUCCUUCAACAAAUGUGUCAUUCAAAACAGUAAUUAGGGAAAUCCCACAGAUGAAAAAUGCCUUAGUGAUAAGCUUGGAAUUCUCGGGUGCCAA` is recorded as 0.488.
Under “RBNS enrichment (R)”, `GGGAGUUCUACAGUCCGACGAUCCUCCAGGGCCUUUGCAAGCCCAUCGCCCUCCUCACUGGAGACACCCAGACCUGCCUUCCUCCACCAAGAGAUCCUUAUUAAACACAGCCCCCAAAGCACAGAAUGGAUUCUGGAAUUCUCGGGUGCCAA` is recorded as 0.845.
`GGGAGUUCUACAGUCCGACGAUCCCCCAACACCACUGCCACCACCCCUCUUUUUAUCCUGGUGUGAAACAAUGGUAAUUUGAUAUAUGGUAUUUAUAUUGGCAUUUUUCAACCCAGUGUCACUAGAUGUCACAUGGAAUUCUCGGGUGCCAA` — result for “RBNS enrichment (R)”: 0.502.
`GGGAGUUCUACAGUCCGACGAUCACAAAACAUGUUUAUAAAUGAACAGGAUGUAAUGUACAUAGAUGACAUUAAGAAAAUUUGUAUGAAAUAAUUUAGUCAUCAUGAAAUAUUUAGUUGUCAUAUAAAAACCCUGGAAUUCUCGGGUGCCAA` — result for “RBNS enrichment (R)”: 1.42.
Under “RBNS enrichment (R)”, `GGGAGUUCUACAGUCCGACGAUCCAUUUUUUUUUUAAAGGCCAUCUGAAAUUCCAUUUGUCAUGGUGGGAAGCAUUUUGGAUAUGAUGCAGGAAAUCUCUUCCUGGAGUCAAAAGUUCCCAAGAGGUCCUGUAUGGAAUUCUCGGGUGCCAA` is recorded as 1.01.
`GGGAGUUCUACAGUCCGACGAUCACCAGCCCCCUCGCCUGCCUGUGUCUCUCCCCAAACCCCUUUAGAUGGGGAGGGAAGAGGAGGAGAGGGGAGGGGACCUGCCCCCUCCUCAGGCAUCUGGGAGGGCCCUGUGGAAUUCUCGGGUGCCAA` — result for “RBNS enrichment (R)”: 0.278.
For `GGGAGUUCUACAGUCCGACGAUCGCCGAGCCGCCGCAGACGGAGCCCCGCUGCUGACUGGACCCUCUCUGGCCCUGUGGUUCGGUUCUCACAGUUCCAGUGAGACUGGGCAGCGUGUUUGCCUGUCCUGAGGUUGGAAUUCUCGGGUGCCAA`, “RBNS enrichment (R)” read 0.437.
`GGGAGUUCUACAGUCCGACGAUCAGAGGUAACCCCAAGCAGGGCUGGCCCCUCUAAAGAGGACAUUUCCCAGUUUGUCCUUUCUUGUCCAUACCUACACACACCUGCAGCGGGGGUCUGGGGAACAUGUGGGCUGGAAUUCUCGGGUGCCAA`: “RBNS enrichment (R)” 0.609.
Under “RBNS enrichment (R)”, `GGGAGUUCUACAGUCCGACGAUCGCUGUGUUCUGUGACUCAAUUGUAUCGUGUUACUCUCAGUACAGACCGUCUCCUCUACGUGACCGUAUAAUGUUUUUUCUCCUCUUGUAGUCUUUAUGGUGUGUCUUUAUUGGAAUUCUCGGGUGCCAA` is recorded as 0.648.
For `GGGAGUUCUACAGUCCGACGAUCGUUCCAGAAGGGGAGAAGCAUAGAGGGCCUGUGAGCUCACGUGUGUUCUUUGUCAUAGGGGUGAAAAACUAACUUCAAGUGUCCCUUGUUUGAAAUAAACUUAGCAGAGUUGGAAUUCUCGGGUGCCAA`, “RBNS enrichment (R)” read 0.867.

Sample 3 — method: protein binding microarray; form: double-stranded DNA, one strand shown; matrix: in vitro; tested at: not given; baseline: not given; reading: higher = stronger binding
Target: Histone acetyltransferase KAT6A, winged helix 2, GST fusion (KAT6A, Homo sapiens, UniProt Q92794, residues 85-181)
Notes: 8-mer, flanks averaged, mean of 2 arrays, mostly near background
Construct (chain): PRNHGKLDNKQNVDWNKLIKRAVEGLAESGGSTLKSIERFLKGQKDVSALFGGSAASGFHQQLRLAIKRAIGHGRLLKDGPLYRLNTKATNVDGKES
With `AAAAATTC` the E-score was -0.0941.
The E-score of `ATGCAATA` is reported as -0.0455.
The E-score of `GCCCCATA` is reported as -0.0331.
For `CCATTGGC`, the E-score was -0.0157.
The E-score of `ACTCATCG` is reported as -0.0348.
The E-score of `GCACGCTA` is reported as -0.0992.
With `TCAAAGAA` the E-score was 0.0639.
`AGGCAATC` gave an E-score of 0.028.

Mixed results
For `PhoQ, residues 284 288 289 292 302 303 GTAMQF`, the fold induction was 0.672 (PhoP, residues 12 14 15 18 19 NFCKL (Escherichia coli, UniProt P23836); Sort-seq, refers to: YFP reporter; E. coli; PhoQ-PhoP variant library, with: 10 µM Mg2+; baseline: high Mg2+ state, higher = stronger signaling).

For quick reference, copied from above (sample 2):
`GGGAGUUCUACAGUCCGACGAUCUCGUGUCCUUGCUGUCUUUUUAUUUUCCUUUUUGUUUGUUAGCAAAAACCUCUAUUUAGAUUUCAAUAAUCAGAGAAGUGUAAAAUAAAACAGAUUAUAUUGUACUUGACUGGAAUUCUCGGGUGCCAA` — result for “RBNS enrichment (R)”: 0.647.
Under “RBNS enrichment (R)”, `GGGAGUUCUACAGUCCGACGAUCACAUAUCGCUGACUUCAUGGAAUGGACAUCCUGUAUAAGCACUGAAAAACAACAACACAAUAACACUAAAAUUUUAGGCACUCUUAAAUGAUCUGCCUCUAAAAGCGUUGUGGAAUUCUCGGGUGCCAA` is recorded as 0.391.
Under “RBNS enrichment (R)”, `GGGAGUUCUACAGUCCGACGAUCUAAAAUAUAUUUUAACCAUCCAGAGAUGGUGUUGAAUCCUUCAACAAAUGUGUCAUUCAAAACAGUAAUUAGGGAAAUCCCACAGAUGAAAAAUGCCUUAGUGAUAAGCUUGGAAUUCUCGGGUGCCAA` is recorded as 0.488.
Under “RBNS enrichment (R)”, `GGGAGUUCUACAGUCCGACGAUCCUCCAGGGCCUUUGCAAGCCCAUCGCCCUCCUCACUGGAGACACCCAGACCUGCCUUCCUCCACCAAGAGAUCCUUAUUAAACACAGCCCCCAAAGCACAGAAUGGAUUCUGGAAUUCUCGGGUGCCAA` is recorded as 0.845.
